Experimental data gathered from unrelated publications.
Each line is one published result; not all experiments were run side by side. Values joined by “and” are separate records of one study, mostly repeats; a detail may differ. Numbers after ± are the reported error.
Chain of UniProt P45983 (whole entry, looked up): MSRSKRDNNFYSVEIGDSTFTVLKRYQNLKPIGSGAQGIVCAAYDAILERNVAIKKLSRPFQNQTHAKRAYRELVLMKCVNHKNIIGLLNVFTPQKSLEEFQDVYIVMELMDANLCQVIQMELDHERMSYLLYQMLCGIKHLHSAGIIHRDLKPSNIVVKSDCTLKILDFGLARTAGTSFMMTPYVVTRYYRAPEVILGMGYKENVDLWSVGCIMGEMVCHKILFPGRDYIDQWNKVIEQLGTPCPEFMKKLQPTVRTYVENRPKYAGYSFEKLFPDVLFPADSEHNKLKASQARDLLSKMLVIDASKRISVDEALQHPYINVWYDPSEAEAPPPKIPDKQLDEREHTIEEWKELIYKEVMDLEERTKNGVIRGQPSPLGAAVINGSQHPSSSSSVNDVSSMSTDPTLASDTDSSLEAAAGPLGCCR
Chain of UniProt P41594 (whole entry, looked up): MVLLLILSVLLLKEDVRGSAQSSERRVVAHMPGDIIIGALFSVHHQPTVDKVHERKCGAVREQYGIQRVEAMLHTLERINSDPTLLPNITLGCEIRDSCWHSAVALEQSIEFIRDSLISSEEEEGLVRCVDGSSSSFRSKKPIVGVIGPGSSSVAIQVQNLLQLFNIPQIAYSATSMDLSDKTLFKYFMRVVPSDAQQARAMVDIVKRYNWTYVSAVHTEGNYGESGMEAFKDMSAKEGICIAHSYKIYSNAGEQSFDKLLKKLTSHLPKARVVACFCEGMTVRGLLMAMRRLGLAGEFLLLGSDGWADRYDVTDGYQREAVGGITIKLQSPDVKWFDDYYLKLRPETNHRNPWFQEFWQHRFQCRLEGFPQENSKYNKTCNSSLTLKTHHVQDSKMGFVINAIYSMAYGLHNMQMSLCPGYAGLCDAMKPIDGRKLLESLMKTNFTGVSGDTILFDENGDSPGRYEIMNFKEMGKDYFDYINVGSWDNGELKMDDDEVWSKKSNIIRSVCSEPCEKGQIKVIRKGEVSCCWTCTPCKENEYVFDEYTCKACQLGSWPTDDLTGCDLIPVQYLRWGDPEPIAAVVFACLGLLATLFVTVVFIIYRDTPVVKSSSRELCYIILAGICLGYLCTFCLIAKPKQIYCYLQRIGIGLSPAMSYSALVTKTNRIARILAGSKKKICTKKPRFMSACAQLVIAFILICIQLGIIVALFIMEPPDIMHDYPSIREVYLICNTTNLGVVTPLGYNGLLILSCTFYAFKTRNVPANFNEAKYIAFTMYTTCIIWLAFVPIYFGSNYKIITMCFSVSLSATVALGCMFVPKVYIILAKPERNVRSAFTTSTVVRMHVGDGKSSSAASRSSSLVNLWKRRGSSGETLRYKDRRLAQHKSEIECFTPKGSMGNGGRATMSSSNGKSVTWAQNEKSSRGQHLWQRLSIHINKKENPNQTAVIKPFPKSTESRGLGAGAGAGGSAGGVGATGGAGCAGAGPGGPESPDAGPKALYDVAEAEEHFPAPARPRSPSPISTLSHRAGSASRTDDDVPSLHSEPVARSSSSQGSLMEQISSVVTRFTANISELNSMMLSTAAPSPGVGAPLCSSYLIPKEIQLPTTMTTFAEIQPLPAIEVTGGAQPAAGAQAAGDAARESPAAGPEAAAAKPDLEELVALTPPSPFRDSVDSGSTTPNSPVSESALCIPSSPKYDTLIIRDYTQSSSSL
Chain of UniProt Q96RR4 (whole entry, looked up): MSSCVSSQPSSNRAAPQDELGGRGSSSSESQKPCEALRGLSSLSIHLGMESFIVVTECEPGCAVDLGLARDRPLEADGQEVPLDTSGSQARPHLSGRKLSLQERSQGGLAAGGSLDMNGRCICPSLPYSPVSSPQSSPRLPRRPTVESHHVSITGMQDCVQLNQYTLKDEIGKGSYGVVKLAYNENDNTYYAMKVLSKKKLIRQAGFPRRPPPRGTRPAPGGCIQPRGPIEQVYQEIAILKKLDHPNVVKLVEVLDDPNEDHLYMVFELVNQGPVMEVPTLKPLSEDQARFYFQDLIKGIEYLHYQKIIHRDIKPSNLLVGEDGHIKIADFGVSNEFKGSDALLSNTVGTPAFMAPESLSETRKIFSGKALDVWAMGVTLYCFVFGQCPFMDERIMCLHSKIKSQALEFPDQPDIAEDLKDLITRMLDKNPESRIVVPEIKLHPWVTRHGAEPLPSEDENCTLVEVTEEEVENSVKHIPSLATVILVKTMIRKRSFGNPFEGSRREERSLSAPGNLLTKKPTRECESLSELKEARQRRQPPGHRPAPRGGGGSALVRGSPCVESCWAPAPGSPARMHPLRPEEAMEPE
Chain of UniProt P42684 (whole entry, looked up): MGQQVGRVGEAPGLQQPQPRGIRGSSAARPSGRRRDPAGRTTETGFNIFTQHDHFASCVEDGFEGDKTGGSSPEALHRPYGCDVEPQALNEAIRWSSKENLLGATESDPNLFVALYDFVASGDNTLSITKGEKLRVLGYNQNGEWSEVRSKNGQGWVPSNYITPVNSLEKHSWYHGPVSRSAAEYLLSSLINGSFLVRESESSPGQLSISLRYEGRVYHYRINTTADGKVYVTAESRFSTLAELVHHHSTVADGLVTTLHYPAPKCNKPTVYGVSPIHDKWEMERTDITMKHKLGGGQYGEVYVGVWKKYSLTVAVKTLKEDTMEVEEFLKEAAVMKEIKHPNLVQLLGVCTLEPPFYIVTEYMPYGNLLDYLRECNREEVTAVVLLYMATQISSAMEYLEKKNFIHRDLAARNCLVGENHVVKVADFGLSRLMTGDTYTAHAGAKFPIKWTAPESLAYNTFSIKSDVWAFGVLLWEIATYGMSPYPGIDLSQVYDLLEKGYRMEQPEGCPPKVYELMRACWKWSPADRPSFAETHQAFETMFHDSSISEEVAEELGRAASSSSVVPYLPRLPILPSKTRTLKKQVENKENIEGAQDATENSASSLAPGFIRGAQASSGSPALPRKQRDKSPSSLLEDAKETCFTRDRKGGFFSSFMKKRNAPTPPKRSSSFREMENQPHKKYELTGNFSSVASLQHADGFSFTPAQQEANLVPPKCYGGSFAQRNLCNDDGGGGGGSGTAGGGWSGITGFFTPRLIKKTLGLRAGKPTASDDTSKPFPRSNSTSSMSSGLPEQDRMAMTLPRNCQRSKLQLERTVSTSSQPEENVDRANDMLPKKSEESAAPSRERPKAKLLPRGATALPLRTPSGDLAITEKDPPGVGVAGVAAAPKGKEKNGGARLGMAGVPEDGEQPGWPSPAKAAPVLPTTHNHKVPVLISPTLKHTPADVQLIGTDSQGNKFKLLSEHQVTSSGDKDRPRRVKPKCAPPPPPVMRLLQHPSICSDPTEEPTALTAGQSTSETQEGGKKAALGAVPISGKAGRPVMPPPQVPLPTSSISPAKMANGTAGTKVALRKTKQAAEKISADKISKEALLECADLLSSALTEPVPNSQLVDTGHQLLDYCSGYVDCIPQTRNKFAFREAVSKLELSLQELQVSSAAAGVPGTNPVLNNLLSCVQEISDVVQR
Chain of UniProt P42785 (whole entry, looked up): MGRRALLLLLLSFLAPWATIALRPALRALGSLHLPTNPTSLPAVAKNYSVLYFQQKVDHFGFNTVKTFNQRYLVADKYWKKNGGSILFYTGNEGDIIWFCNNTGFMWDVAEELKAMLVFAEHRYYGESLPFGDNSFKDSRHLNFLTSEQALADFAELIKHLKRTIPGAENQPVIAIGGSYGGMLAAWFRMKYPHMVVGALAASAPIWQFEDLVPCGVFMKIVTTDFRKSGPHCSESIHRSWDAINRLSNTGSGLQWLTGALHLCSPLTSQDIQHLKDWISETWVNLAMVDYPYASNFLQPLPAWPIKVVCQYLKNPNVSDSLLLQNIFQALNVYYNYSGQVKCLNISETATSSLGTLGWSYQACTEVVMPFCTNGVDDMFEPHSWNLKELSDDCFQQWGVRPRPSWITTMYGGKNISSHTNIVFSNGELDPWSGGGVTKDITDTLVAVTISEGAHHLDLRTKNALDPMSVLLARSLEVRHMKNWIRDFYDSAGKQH
Chain of UniProt P59676 (whole entry, looked up): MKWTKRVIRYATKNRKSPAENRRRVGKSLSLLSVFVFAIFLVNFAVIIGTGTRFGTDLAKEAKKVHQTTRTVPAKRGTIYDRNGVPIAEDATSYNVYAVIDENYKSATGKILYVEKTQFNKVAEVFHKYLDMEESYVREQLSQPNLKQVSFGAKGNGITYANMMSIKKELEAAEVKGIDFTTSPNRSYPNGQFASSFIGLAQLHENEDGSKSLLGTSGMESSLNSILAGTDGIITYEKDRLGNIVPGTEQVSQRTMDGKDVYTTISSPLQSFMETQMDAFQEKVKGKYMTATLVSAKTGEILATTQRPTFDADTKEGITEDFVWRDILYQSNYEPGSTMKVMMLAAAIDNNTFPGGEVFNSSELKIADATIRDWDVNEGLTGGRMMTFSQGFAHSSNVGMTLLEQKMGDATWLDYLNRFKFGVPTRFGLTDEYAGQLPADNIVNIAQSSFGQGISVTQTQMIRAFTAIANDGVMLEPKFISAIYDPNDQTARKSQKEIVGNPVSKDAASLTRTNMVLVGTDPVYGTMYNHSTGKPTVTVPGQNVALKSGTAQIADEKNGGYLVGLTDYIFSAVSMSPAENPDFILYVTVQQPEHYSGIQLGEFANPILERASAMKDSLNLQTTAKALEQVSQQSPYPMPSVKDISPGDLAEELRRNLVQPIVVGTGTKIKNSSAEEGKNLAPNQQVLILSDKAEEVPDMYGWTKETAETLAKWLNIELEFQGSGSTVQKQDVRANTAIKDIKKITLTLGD
Chain of UniProt P12763 (whole entry, unmodified, looked up): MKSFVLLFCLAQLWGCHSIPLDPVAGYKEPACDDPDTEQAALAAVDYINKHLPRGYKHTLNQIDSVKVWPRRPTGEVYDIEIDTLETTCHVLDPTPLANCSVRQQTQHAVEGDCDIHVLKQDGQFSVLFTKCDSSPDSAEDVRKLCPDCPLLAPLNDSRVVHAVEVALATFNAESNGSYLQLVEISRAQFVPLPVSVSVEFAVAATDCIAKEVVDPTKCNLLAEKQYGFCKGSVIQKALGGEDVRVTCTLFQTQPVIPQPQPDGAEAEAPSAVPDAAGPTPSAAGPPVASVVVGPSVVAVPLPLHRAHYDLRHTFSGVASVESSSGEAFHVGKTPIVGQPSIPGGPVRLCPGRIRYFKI

Compound	target	assay	system	setting	scale	quantity	value
CC1(C)S[C@@H]2[C@H](/N=C/N3CCCCCC3)C(=O)N2[C@H]1C(=O)O	Penicillin-binding protein 2a (pbp2a, Streptococcus pneumoniae, UniProt Q8DNB6)	inhibitor				kinact/KI	62 ± 2.7 M⁻¹ s⁻¹
COc1cc(O)cc(/C=C/c2ccc(O)cc2)c1	O-methyltransferase (Sorghum bicolor, UniProt A0A1B6PFV1)	isothermal titration calorimetry		concentration not given, apo protein		-TΔS of binding	0.37 kcal/mol
CNC(C)Cc1ccc2nsnc2c1 (stereo not drawn)	HTR2C (Homo sapiens, UniProt P28335)	agonist			baseline: 5-HT	Emax	84.3 ± 7.2%
COc1ccc(N2C(=O)N(c3c(C)cccc3Cl)Cc3cnc(Nc4ccc(C5CCN(C)CC5)cc4OC)nc32)nc1	GSK3B (Homo sapiens, UniProt P49841)	kinase activity, inhibitor		0.5 µM, kinase GSK-3-BETA		inhibition	11%
O=C(Nc1nncs1)C(F)(F)Cl	MAPK8 (Homo sapiens, UniProt P45983)	binding, isothermal titration calorimetry				association constant	5370 M⁻¹ and 5390 M⁻¹
CCCCCCCCCC(=O)CC(=O)N[C@H]1CCOC1=O	qscR, DNA-bound (Pseudomonas aeruginosa, UniProt G3XD77)	DNA binding, ligand, EMSA		saturating ligand		Hill slope	2.2
CN(C(=O)n1cnc(-c2ccc[n+]([O-])c2)c1)C1CCCCC1	Monoacylglycerol lipase ABHD6 (Abhd6, Rattus norvegicus, UniProt Q5XI64)	enzyme activity, ABPP	rat, brain	oral, 100 mg/kg/day, 7 days	baseline: vehicle	fold change	-15
Nc1ncnc2c1ncn2[C@@H]1O[C@H](CO)[C@@H](OP(=O)(O)O)[C@H]1O	Thermonuclease (nuc, Staphylococcus aureus, UniProt P00644)	folding kinetics		unit not given	baseline: prAp	phi value	0 ± 0.1
C[C@H]1CN(c2n[nH]c3nc(N[C@H]4CC[C@H](NS(=O)(=O)CCC(F)(F)F)CC4)ncc23)CCO1	KHSRP (Homo sapiens, UniProt Q92945)	inhibitor, Kinobeads competition profiling		0.8 µM	baseline: vehicle	relative abundance	1.47
COc1cc(N)c(Cl)cc1C(=O)NC1CN2CCC1CC2 (stereo not drawn)	NPFFR1 (Homo sapiens, UniProt Q9GZQ6)	β-arrestin recruitment, TANGO luminescence, measured: NPFF1		concentration not given	baseline: basal luminescence	log2 fold change	-0.063
COc1ccc(Nc2nn3c(-c4ccccc4)ccnc3c2C(=O)Nc2ccccc2)cc1	α-glucosidase	SDS-PAGE densitometry, measured: 45 kDa band		1 mg/mL	baseline: untreated enzyme, lower = more denaturation	band intensity	101 a.u.
COc1cc2nccc(Oc3ccc(NC(=O)c4cc5c(n(-c6ccccc6)c4=O)CCCC5=O)nc3)c2cc1OC	NTRK1 (Homo sapiens, UniProt P04629)	cell viability, CellTiter-Glo	Ba/F3 expressing recombinant kinase		baseline: NTRK1 IC50 over AXL IC50	selectivity ratio	51
Nc1ncnc2c1ncn2[C@@H]1O[C@H](COP(=O)(O)OP(=O)(O)NP(=O)(O)O)[C@@H](O)[C@H]1O	Cell cycle histidine kinase CckA, cytoplasmic region (Caulobacter vibrioides, UniProt Q9X688)	ITC		12 °C, without c-di-GMP		-TΔS	-5.2 kcal/mol
CN1CCN(c2cc(-c3ccncc3)c(-c3ccc4ccccc4c3)nn2)CC1	NMUR1 (Homo sapiens, UniProt Q9HB89)	agonist, FLIPR		12.5 µM		activation	1%
CO/N=C(\C(=O)N[C@@H]1C(=O)N2C(C(=O)O)=C(CSc3nc(=O)c(=O)[nH]n3C)CS[C@H]12)c1csc(N)n1	Penicillin-binding protein 2X (Streptococcus pneumoniae R6, UniProt P59676)	inhibitor	Streptococcus pneumoniae			kinact/KI	30000 ± 7800 M⁻¹ s⁻¹
CCCCC/C=C\C/C=C\C/C=C\C/C=C\CCCC(=O)NCCO	Trpv1 (Mus musculus, UniProt Q704Y3, N552L)	ion current, agonist, whole-cell patch clamp		N552L	baseline: 3 mM 2-APB	maximal open probability	0.82 ± 0.17
CN(C(=O)n1cnc(-c2ccc[n+]([O-])c2)c1)C1CCCCC1	AVPR1B (Homo sapiens, UniProt P47901)	radioligand binding		10 µM, together with: [3H]arginine vasopressin		inhibition	-1%
CC(C)C[C@@H]1NC(=O)[C@H](C(C)C)NC(=O)CNC(=O)[C@H](CC(N)=O)NC(=O)[C@@H]2CCCN2C(=O)[C@H](Cc2ccc(O)cc2)NC(=O)[C@H](CCCNC(=N)N)NC(=O)[C@H](Cc2ccccc2)NC(=O)[C@@H](NC(=O)[C@H](CCCCN)NC(=O)[C@@H]2CCCN2C(=O)[C@H](CO)NC(=O)[C@H](C)NC(=O)[C@@H](N)Cc2ccc(O)cc2)CSSC[C@@H](C(=O)N[C@H](C(N)=O)[C@@H](C)O)NC(=O)[C@H](C)NC1=O	Alpha-2-HS-glycoprotein, asialo (AHSG, Bos taurus, UniProt P12763)	binding, isothermal titration calorimetry		pH 7.0, 25 °C, together with: asialofetuin		-ΔH	3.58 kcal/mol
CC[C@H](C)[C@@H]1NC(=O)[C@H](Cc2c[nH]c3ccccc23)NC(=O)[C@H](Cc2ccc(O)cc2)NC(=O)CSC[C@@H](C(N)=O)NC(=O)[C@H]([C@@H](C)O)NC(=O)[C@H](CO)NC(=O)[C@H](C(C)C)NC(=O)[C@H](Cc2ccc(O)cc2)NC(=O)[C@H](CCCNC(=N)N)NC(=O)[C@H](Cc2ccc(O)cc2)NC(=O)[C@H]([C@@H](C)O)NC(=O)[C@H]([C@@H](C)O)NC(=O)[C@H](Cc2c[nH]c3ccccc23)NC(=O)[C@H](CO)NC(=O)[C@H](CC(N)=O)NC(=O)[C@H](CO)NC1=O	Vacuolar protein sorting-associated protein 26A/Vacuolar protein sorting-associated protein 35, Vps35 residues 1–224 (Homo sapiens, UniProt O75436+Q96QK1)	ITC		25 °C		ΔG	-9.1 ± 0.11 kcal/mol
O=C(Nc1cccnn1)N1CCC(=Cc2cccc(Oc3ccc(C(F)(F)F)cn3)c2)CC1	GRM5 (Homo sapiens, UniProt P41594)	radioligand binding		10 µM, together with: [3H]quisqualic acid		inhibition of binding	9%
COc1cc(Nc2ncc(F)c(Nc3ccc4c(n3)NC(=O)C(C)(C)O4)n2)cc(OC)c1OC	CAMKK2 (Homo sapiens, UniProt Q96RR4)	KINOMEscan		10 µM		inhibition	9%
O=C[C@H](O)COP(=O)(O)O	TPI1 (Saccharomyces cerevisiae, UniProt P00942, Y208A)	substrate, GPDH/NADH-coupled		pH 5.7, 25 °C		Km	~16 mM
O=C(O)Cc1c[nH]cn1	SLC6A6 (Homo sapiens, UniProt P31641, Y138A)	binding, microscale thermophoresis		32.7 nM, fitted curve	higher = more binding	fraction bound	0.00019
O=C(c1ccc(Cl)cc1)N1CCN2C(=O)N(OC(=O)N3CCOc4ccccc43)C(=O)C2C1 (stereo not drawn)	PRCP (Homo sapiens, UniProt P42785)	enzyme activity, inhibitor, MS-based ABPP	SW-620 conditioned medium	10 µM, 1 h, 37 °C	baseline: compound over DMSO, lower = stronger inhibition	median ratio	1.13
CC(C)(C)C(=O)CSc1ncc2c(n1)-c1cc(Cl)ccc1CC2	Dual specificity protein phosphatase 10, catalytic domain (Homo sapiens, UniProt Q9Y6W6)	X-ray co-crystal structure		concentration not given		active site volume	53.1 ± 1.9 Å³
[2H]c1c([2H])c([C@]2([2H])CCCN2C(=O)C(C)(C)Oc2ccc3cn[nH]c3c2)c([2H])c([2H])c1C([2H])([2H])[2H]	ABL2 (Homo sapiens, UniProt P42684)	KINOMEscan		1 µM	baseline: DMSO control	remaining binding	71%
CO[C@H]1C[C@H](O[C@H]2[C@H](C)O[C@@H](O[C@@H]3/C(C)=C/C[C@@H]4C[C@@H](C[C@]5(C=C[C@H](C)[C@@H](C6CCCCC6)O5)O4)OC(=O)[C@@H]4C=C(C)[C@@H](O)[C@H]5OC/C(=C\C=C\[C@@H]3C)[C@]54O)C[C@@H]2OC)O[C@@H](C)[C@@H]1O	NR1H3 (Homo sapiens, UniProt Q13133)	coactivator recruitment		0.4 µM		efficacy	2.47 ± 2.13%

Repeated from above:
Compound	target	assay	system	setting	scale	quantity	value
O=C(Nc1cccnn1)N1CCC(=Cc2cccc(Oc3ccc(C(F)(F)F)cn3)c2)CC1	GRM5 (Homo sapiens, UniProt P41594)	radioligand binding		10 µM, together with: [3H]quisqualic acid		inhibition of binding	9%
